Measured values collected from several papers.
Protocols differ between the studies behind these lines. ± gives the spread as reported.
T1: RNA riboswitch (Geobacter sulfurreducens); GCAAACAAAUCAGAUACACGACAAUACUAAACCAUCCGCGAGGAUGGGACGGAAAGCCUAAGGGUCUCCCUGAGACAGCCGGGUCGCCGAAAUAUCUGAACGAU
Sequence of UniProt Q9HAW7 (whole entry, looked up): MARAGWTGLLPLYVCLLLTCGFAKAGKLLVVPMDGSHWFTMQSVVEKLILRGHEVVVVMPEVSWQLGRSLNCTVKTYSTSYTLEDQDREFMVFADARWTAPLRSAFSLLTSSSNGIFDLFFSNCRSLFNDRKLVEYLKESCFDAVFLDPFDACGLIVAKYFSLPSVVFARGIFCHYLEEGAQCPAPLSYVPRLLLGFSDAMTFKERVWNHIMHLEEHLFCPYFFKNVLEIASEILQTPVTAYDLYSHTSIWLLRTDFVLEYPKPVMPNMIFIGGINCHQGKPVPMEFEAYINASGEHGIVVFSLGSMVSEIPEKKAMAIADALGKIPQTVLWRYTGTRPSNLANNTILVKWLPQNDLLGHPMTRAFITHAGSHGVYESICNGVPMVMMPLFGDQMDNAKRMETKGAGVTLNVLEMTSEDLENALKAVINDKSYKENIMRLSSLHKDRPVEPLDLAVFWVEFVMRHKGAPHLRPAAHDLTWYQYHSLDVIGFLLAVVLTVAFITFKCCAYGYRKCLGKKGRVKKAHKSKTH
Sequence of UniProt P48729 (whole entry, looked up): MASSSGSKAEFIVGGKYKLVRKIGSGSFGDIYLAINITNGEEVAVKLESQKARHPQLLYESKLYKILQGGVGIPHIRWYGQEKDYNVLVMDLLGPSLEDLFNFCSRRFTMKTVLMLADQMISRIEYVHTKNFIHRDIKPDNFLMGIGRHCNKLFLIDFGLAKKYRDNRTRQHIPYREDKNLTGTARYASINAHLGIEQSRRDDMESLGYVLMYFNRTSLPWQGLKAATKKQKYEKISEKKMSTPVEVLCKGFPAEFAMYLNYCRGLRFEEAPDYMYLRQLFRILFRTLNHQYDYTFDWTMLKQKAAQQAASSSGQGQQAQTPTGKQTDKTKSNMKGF
Sequence of UniProt P28907 (whole entry, looked up): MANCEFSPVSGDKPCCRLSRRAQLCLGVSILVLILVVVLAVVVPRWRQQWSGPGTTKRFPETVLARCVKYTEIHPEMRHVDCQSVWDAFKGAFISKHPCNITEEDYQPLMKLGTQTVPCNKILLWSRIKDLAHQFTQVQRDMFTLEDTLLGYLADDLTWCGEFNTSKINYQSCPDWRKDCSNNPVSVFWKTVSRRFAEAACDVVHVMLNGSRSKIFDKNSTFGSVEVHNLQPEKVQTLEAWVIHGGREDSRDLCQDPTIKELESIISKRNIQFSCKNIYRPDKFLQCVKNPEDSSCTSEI
Sequence of UniProt P12004 (whole entry, unmodified, looked up): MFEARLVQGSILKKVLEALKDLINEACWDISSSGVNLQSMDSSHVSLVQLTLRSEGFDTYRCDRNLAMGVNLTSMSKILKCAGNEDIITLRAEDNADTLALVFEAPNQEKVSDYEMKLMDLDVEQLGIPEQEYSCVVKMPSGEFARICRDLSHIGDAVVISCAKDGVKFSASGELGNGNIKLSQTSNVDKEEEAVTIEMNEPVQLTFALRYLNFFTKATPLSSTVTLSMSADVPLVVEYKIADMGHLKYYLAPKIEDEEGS
Sequence of UniProt Q9HCG7 (whole entry, looked up): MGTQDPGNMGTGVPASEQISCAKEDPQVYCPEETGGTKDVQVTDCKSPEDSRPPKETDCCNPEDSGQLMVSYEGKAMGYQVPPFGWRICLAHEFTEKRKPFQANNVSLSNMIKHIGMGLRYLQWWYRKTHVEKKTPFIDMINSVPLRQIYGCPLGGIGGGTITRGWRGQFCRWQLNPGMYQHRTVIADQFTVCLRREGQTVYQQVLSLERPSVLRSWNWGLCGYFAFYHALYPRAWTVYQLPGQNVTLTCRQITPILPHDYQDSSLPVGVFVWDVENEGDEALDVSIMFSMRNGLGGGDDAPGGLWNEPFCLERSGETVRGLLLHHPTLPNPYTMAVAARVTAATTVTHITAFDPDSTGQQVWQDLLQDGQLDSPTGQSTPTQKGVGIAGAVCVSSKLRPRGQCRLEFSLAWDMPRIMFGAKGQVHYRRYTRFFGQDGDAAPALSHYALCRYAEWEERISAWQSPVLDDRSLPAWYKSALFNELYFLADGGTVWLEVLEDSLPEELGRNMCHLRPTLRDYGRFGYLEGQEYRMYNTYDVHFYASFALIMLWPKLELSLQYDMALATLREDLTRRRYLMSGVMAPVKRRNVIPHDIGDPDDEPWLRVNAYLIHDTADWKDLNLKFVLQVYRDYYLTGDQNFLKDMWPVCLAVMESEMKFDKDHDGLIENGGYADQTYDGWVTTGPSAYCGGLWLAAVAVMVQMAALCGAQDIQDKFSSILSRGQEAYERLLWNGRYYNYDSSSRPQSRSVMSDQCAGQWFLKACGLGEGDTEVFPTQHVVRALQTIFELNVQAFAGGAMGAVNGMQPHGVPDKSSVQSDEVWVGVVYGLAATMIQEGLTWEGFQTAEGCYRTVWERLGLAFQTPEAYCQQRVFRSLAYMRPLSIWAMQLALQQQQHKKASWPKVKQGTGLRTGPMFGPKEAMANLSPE
Sequence of UniProt P11309 (whole entry, looked up): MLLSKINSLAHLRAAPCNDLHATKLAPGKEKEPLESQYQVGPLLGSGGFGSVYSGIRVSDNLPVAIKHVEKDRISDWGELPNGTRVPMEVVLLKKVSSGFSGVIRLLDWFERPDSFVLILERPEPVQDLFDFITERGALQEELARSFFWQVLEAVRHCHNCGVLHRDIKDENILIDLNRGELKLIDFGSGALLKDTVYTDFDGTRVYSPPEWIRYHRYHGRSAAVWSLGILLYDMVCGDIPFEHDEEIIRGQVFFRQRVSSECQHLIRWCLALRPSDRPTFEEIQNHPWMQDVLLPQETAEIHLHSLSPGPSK
Sequence of UniProt Q03431 (whole entry, looked up): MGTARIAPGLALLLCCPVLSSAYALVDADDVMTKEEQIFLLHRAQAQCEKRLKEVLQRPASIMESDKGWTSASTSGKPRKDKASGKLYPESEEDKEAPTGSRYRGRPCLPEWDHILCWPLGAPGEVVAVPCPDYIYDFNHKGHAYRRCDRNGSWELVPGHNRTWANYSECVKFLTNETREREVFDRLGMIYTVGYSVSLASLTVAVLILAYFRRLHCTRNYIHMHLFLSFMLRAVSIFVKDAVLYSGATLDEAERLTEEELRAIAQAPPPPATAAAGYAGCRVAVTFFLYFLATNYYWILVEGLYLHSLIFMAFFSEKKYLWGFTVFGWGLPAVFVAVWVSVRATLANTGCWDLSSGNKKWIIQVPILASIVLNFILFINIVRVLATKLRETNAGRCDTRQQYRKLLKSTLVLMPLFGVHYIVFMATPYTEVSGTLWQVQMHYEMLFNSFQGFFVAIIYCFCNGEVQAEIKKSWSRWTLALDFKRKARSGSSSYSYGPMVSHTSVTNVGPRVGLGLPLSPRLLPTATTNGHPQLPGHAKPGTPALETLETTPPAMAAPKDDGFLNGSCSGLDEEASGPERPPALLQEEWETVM
Sequence of UniProt P16050 (whole entry, looked up): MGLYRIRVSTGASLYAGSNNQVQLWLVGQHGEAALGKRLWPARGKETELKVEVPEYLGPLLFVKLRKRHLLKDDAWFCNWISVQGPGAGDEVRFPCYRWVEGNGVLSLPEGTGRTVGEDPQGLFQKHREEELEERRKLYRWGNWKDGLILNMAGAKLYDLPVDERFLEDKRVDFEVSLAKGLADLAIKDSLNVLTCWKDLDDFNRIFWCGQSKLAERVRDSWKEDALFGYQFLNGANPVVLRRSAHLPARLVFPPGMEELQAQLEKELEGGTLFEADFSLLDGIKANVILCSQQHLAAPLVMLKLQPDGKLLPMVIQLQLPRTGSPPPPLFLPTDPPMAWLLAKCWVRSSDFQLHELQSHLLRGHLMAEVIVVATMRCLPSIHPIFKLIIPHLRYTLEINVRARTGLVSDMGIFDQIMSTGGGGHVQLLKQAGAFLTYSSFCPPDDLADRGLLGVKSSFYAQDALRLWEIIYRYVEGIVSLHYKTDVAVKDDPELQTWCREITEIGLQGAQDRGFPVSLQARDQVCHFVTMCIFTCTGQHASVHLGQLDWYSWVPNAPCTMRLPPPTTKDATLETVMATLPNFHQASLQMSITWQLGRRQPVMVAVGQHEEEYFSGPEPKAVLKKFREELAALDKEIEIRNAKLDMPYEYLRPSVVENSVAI
Sequence of UniProt P53341 (whole entry, unmodified, looked up): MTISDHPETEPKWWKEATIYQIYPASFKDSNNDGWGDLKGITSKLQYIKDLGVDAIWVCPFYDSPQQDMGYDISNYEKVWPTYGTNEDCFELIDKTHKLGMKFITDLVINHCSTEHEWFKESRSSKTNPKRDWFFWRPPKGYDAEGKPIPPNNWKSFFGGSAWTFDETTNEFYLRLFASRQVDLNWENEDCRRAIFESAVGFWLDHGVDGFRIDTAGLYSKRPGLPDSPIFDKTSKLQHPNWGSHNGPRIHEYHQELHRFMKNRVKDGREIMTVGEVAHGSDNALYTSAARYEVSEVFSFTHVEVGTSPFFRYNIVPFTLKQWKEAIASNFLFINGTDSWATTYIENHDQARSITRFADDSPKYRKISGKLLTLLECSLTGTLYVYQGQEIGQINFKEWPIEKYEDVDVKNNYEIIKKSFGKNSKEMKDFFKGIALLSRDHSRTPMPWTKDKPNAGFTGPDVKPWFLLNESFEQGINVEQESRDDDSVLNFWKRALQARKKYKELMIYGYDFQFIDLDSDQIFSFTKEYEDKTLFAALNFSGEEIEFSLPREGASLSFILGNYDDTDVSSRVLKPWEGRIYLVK
Sequence of UniProt Q96SW2 (whole entry, looked up): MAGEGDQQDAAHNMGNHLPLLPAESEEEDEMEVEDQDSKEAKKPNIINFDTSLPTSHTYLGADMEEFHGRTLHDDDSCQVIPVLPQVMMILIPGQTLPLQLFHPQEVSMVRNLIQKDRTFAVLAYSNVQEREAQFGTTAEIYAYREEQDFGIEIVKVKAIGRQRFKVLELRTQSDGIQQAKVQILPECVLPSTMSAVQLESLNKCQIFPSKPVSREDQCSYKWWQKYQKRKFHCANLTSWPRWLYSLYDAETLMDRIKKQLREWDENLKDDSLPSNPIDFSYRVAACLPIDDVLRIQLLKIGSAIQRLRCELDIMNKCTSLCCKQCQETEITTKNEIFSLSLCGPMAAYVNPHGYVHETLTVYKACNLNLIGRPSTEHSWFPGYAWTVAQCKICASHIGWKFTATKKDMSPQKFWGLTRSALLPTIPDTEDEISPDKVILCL

| Compound | target | test | system | conditions | how to read | quantity | result |
| --- | --- | --- | --- | --- | --- | --- | --- |
| C=C1C(=O)O[C@@H]2[C@H]3C(CO)=CC(=O)C3=C(C)C[C@H](OC(=O)Cc3ccc(O)cc3)[C@@H]12 | MAL12 (Saccharomyces cerevisiae S288c, UniProt P53341) | synchronous fluorescence, Δλ 15 nm | – | up to 65.22 µM, 298 K, red-shifted from 288 nm | – | Tyr emission peak wavelength | 292 nm |
| CC(OCCCCCN1C[C@H](O)[C@@H](O)[C@H](O)[C@H]1CO)C(C)(C)C (some centres unmarked) | Beta-glucosidase (GBA2, Homo sapiens, UniProt Q9HCG7) | enzyme activity, inhibitor, 4-MU-β-D-glucopyranoside | HEK293T cell homogenate | – | relative to: GCS over GBA2 | selectivity ratio | ~1000 fold |
| CC[C@H](C)[C@H](NC(=O)[C@H](CO)NC(=O)[C@H](CCCCN)NC(=O)CNC(=O)[C@H](CCCCN)NC(=O)[C@H](CC(=O)O)NC(=O)[C@H](Cc1c[nH]cn1)NC(=O)[C@H](CC(C)C)NC(=O)[C@H](CC(C)C)NC(=O)[C@H](CCC(N)=O)NC(=O)[C@H](Cc1c[nH]cn1)NC(=O)[C@H](CCC(=O)O)NC(=O)[C@H](CO)NC(=O)[C@@H](NC(=O)[C@H](C)N)C(C)C)C(=O)N[C@@H](CCC(N)=O)C(=O)N[C@@H](CO)C(=O)N[C@@H](CCSC)C(=O)N[C@@H](CCC(=O)O)C(=O)N[C@@H](CCCNC(=N)N)C(=O)N[C@H](C(=O)N[C@@H](CCC(=O)O)C(=O)N[C@@H](Cc1c[nH]c2ccccc12)C(=O)N[C@@H](CC(C)C)C(=O)N[C@@H](CCCNC(=N)N)C(=O)N[C@@H](CCCCN)C(=O)N[C@@H](CCCCN)C(=O)N[C@@H](CC(C)C)C(=O)N[C@@H](CCC(N)=O)C(=O)N[C@@H](CC(=O)O)C(=O)N[C@H](C(=O)N[C@@H](Cc1c[nH]cn1)C(=O)N[C@@H](CC(N)=O)C(=O)N[C@@H](Cc1ccccc1)C(=O)N[C@@H](CCCCNC(=O)c1ccc2c(c1)C1(OC2=O)c2ccc(N(C)C)cc2Oc2cc(N(C)C)ccc21)C(N)=O)C(C)C)C(C)C | PTH1R (Homo sapiens, UniProt Q03431) | binding, NanoBRET | HEK293 stably expressing receptor | room temperature, 0.02% sodium azide, with: 5 µM coelenterazine h | – | kon | 430000 ± 60000 M⁻¹ s⁻¹ |
| Cc1cc2nc(-c3ccc4c(c3)CN([C@H]3CCC(=O)NC3=O)C4=O)ccn2n1 | Cereblon/Casein kinase I alpha (CSNK1A1/CRBN, Homo sapiens, UniProt P48729+Q96SW2) | protein level, degrader, luciferase | MOLT-4 | – | – | Dmax | 83% |
| CC(=O)NCCN(CC(=O)NCCN(CC(=O)NCCN(CC(=O)NCCC(N)=O)C(=O)C[C@@H](N)Cc1ccccc1)C(=O)C[C@@H](N)Cc1ccccc1)C(=O)C[C@@H](N)CCCNC(=N)N | HIV-1 TAR RNA | – | – | extrapolated to 1 M KCl | – | non-electrostatic ΔG° | -8.15 ± 0.0478 kcal/mol |
| CC(C)=CCCC(C)=CCc1cc(-c2coc3cc(OC4OC(C(=O)O)C(O)C(O)C4O)ccc3c2=O)ccc1O (centres unmarked) | UGT1A7 (Homo sapiens, UniProt Q9HAW7) | glucuronidation, substrate, recombinant enzyme | – | – | – | Vmax | 441 pmol/min/mg |
| CSCC[C@H](NC(=O)[C@H](CO)NC(=O)[C@@H](NC(=O)[C@H](CCC(N)=O)NC(C)=O)[C@@H](C)O)C(=O)N[C@H](C(=O)N[C@@H](CC(=O)O)C(=O)N[C@@H](Cc1ccccc1)C(=O)N[C@@H](Cc1ccc(O)cc1)C(=O)N[C@@H](Cc1c[nH]cn1)C(=O)N[C@@H](CO)C(N)=O)[C@@H](C)O | PCNA (Homo sapiens, UniProt P12004) | isothermal titration calorimetry | – | concentration not given, pH 7.4, 25 °C, 100 mM NaCl, with: p21 peptide | – | binding enthalpy ΔH | -13.4 ± 1.67 kcal/mol |
| COCCO[C@H]1CC[C@H](Nc2cc(=O)n(C)c3ccc(-c4cncs4)cc23)CC1 | CD38 (Homo sapiens, UniProt P28907) | hydrolase activity, fluorometric | – | 50 nM, with: ε-NAD+ substrate | relative to: untreated | remaining activity | 60.3 ± 1.8% |
| CN1CCN(CC(=O)N2N=C3/C(=C/c4ccccc4)CCCC3C2c2ccccc2)CC1 (mixture of isomers) | ALOX15 (Homo sapiens, UniProt P16050) | enzyme activity, activator | – | concentration not given, 10 µM activator, with: 25 µM docosahexaenoic acid | relative to: without activator | change in lag phase | 84 s |
| Nc1nc2c(ncn2[C@@H]2O[C@@H]3CO[P@@](O)(=S)O[C@H]4[C@@H](O)[C@H](n5cnc6c(N)ncnc65)O[C@@H]4CO[P@](O)(=S)O[C@H]3[C@H]2O)c(=O)[nH]1 | T1, RNA riboswitch (Geobacter sulfurreducens) | competition gel shift | – | Mg2+ 10 mM, with: 32P c-AMP-GMP | – | Kd | 360 nM |
| CC1(C)CCN(Cc2ccc(C(=O)NC[C@]3(O)CCCN(c4cc(NCc5ccccc5)ncn4)C3)c(O)c2)CC1 | PIM1 (Homo sapiens, UniProt P11309) | radiometric | – | 10 µM, with: 10 µM ATP | – | remaining activity | 100% |

A few entries again:
| Compound | target | test | system | conditions | how to read | quantity | result |
| --- | --- | --- | --- | --- | --- | --- | --- |
| Cc1cc2nc(-c3ccc4c(c3)CN([C@H]3CCC(=O)NC3=O)C4=O)ccn2n1 | Cereblon/Casein kinase I alpha (CSNK1A1/CRBN, Homo sapiens, UniProt P48729+Q96SW2) | protein level, degrader, luciferase | MOLT-4 | – | – | Dmax | 83% |
| CSCC[C@H](NC(=O)[C@H](CO)NC(=O)[C@@H](NC(=O)[C@H](CCC(N)=O)NC(C)=O)[C@@H](C)O)C(=O)N[C@H](C(=O)N[C@@H](CC(=O)O)C(=O)N[C@@H](Cc1ccccc1)C(=O)N[C@@H](Cc1ccc(O)cc1)C(=O)N[C@@H](Cc1c[nH]cn1)C(=O)N[C@@H](CO)C(N)=O)[C@@H](C)O | PCNA (Homo sapiens, UniProt P12004) | isothermal titration calorimetry | – | concentration not given, pH 7.4, 25 °C, 100 mM NaCl, with: p21 peptide | – | binding enthalpy ΔH | -13.4 ± 1.67 kcal/mol |
